Experimental data from different studies.
Numbered parts are unrelated; each lists some results of a single study. Values joined by “and” are separate records of one study, mostly repeats; a detail may differ.
UniProt P60842, sequence (whole entry, looked up): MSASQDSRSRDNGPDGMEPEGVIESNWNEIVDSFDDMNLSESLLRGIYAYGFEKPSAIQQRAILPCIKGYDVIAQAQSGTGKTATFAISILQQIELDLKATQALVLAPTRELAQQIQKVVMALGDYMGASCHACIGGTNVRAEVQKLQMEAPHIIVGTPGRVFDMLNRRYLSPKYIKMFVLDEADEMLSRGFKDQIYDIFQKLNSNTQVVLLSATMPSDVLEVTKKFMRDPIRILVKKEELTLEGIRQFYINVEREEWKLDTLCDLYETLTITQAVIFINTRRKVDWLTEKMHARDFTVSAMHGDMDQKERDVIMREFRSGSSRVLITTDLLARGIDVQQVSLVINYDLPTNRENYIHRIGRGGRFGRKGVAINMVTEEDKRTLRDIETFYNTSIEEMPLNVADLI

Block 1 — method: RNAcompete; form: RNA; matrix: in vitro; concentration: 20 nM; notes: 7-mer, probes averaged, single round; baseline: mean of 7-mers; reading: higher = stronger binding; endpoint: 7-mer Z-score
Target: PABPC1L2, full length, GST fusion (mouse, UniProt A0ABA7IW68)
Construct (chain): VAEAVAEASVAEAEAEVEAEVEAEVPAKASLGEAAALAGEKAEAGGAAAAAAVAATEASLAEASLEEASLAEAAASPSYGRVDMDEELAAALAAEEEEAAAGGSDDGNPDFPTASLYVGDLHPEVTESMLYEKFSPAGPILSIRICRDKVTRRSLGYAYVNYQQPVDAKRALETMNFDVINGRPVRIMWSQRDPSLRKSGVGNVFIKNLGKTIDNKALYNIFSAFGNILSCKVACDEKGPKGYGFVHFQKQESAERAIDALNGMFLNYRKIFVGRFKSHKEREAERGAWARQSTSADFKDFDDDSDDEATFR
Sequence = GUGGCAU; result = 0.225
Sequence = AUAGAGG; result = 0.0189
Sequence = GCCUUUG; result = -0.316
Sequence = UUCAUAC; result = -0.275
Sequence = AUUGUGG; result = 0.167
Sequence = GAUGCAA; result = 0.122
Sequence = AAAGCUC; result = 0.338
Sequence = UUUGACC; result = -0.271

Block 2 — method: competition protein-binding microarray; form: double-stranded DNA, one strand shown; matrix: in vitro; concentration: 2 µM; with: Pho4 competitor, 0.05 µM; reading: higher = stronger binding; endpoint: fluorescence intensity
Target: Centromere-binding protein 1, full length, His-tagged (CBF1, Saccharomyces cerevisiae, UniProt P17106, residues 1-351)
UniProt P17106, sequence (whole entry, looked up): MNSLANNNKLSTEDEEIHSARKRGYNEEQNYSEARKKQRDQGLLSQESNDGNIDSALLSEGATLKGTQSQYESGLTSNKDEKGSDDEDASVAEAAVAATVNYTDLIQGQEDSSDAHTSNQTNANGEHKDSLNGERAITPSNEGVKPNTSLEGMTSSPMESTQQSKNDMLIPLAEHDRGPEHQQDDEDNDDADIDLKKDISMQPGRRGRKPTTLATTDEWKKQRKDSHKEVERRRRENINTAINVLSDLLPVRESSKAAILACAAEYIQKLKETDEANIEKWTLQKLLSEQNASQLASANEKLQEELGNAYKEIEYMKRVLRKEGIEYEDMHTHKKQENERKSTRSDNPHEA
Notes: whole 60-bp probe, lowest competitor level
Sequence = CTGACCTGACATTTGTTAAAAAGGACGTAAGATCGCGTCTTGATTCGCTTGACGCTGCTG; result = 74.8 a.u.
Sequence = CGTCCTAGCGATTGACGCGTGGGTGCCATGAGGAAGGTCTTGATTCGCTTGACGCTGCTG; result = 75.9 a.u.
Sequence = TACAGTCGTTGGGCCACCGTGACTCGTATCTGCGTCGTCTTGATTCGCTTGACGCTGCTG; result = 113 a.u.
Sequence = CACTAAATTTGGAAGCTCGTGTACTCATAAACAATTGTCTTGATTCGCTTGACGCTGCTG; result = 111 a.u.
Sequence = CGGGGTTAAGTTTGTCACAGCACTTGCTTGCAGCAGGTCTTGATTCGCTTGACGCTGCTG; result = 58.7 a.u.
Sequence = CTAACGAAGGTTTGTCACAGTACTTACAAGCCAAGTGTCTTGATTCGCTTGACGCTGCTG; result = 90.9 a.u.
Sequence = ACAATAACTGGGAAACCGATCTCCTTGACAGCGGCCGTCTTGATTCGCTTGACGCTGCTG; result = 66 a.u.
Sequence = CGTCCTAGTGATTGTCACCCTACTTCCATGAGGAAGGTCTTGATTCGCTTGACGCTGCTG; result = 74.9 a.u.

Further values, each from its own experiment
Compound = CC(C)n1cnc(-c2ccc(F)cc2)c1-c1ncc(C(=O)Nc2ccc(N3CCN(C)CC3)cc2)[nH]1; test system = human, idiopathic pulmonary fibrosis; setting = 60 mg once daily, trial, treatment-emergent; endpoint = patients with Bronchitis; result = 0%
Compound = O=C1CCC(N2Cc3cc(C4CCN(Cc5ccccc5)CC4)ccc3C2=O)C(=O)N1 (centres unmarked); test system = male ICR mice, plasma; setting = intravenous, 1.0 mg/kg; endpoint = AUC(0-t); result = 363 ng·h/mL and 289 ng·h/mL
Compound = COc1cc(F)cc2c1[C@]1(O)[C@H](O)[C@H](C#N)[C@@H](c3ccccc3)[C@]1(c1ccc(Br)cc1)O2; target or system = EIF4A1 (Homo sapiens, UniProt P60842); test = RNA clamping, fluorescence polarization; setting = concentration not given, mean of two replicates, with: FAM-labelled poly r(AG)8 RNA; endpoint = fluorescence polarization change; result = 37.3 mP
Compound = COc1ccc(-c2c(Nc3ccccn3)[nH]c3c(C4=CCCCC4)c(-c4ccccc4)nn3c2=O)cc1; test = LC-MS/MS non-compartmental; test system = human, plasma; setting = oral, 200 mg twice daily, 24 h, cycle 1; endpoint = last measurable concentration; result = 8940 ng/mL

For quick reference, copied from above (block 2):
Sequence = CACTAAATTTGGAAGCTCGTGTACTCATAAACAATTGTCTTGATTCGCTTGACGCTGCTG; result = 111 a.u.
Sequence = CGGGGTTAAGTTTGTCACAGCACTTGCTTGCAGCAGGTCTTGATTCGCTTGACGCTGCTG; result = 58.7 a.u.
Sequence = CTAACGAAGGTTTGTCACAGTACTTACAAGCCAAGTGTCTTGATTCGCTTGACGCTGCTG; result = 90.9 a.u.
